Measurements gathered from unrelated publications.
Compare with care: the assays were run in different laboratories. ± marks the error that the study gave.
UniProt P00760, sequence (whole entry, looked up): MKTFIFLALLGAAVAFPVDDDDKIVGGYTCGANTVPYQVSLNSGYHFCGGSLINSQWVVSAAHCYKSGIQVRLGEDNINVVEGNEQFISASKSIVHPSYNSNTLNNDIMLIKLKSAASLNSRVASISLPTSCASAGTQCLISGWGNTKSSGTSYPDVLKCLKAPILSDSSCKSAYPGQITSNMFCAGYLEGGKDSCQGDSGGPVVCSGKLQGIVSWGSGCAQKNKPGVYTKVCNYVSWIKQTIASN
UniProt Q9Y6L6, sequence (whole entry, looked up): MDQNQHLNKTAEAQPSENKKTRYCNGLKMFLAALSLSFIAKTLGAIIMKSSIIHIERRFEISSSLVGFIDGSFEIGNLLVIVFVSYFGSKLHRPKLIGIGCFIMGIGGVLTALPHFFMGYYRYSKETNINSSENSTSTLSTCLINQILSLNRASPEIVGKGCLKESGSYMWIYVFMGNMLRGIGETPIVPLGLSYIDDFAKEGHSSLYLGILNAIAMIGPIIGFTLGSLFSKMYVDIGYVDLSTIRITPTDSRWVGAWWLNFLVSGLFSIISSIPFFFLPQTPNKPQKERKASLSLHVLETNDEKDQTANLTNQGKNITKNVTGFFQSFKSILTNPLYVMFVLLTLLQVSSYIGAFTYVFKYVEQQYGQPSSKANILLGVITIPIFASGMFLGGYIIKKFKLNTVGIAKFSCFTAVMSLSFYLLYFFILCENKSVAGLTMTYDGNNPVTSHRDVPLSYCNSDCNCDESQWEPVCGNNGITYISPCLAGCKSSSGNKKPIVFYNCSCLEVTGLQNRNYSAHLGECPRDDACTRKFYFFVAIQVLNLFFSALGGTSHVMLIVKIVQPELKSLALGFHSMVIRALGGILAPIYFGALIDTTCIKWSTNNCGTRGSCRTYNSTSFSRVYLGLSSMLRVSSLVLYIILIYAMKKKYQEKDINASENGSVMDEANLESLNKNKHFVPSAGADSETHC

Molecule | tested on | assay | test system | setting | scale | measurement | value
FGA (Homo sapiens, UniProt P02671) | TSEN2 (Homo sapiens, UniProt Q8NCE0) | cross-linking MS | – | with: DSSO | – | cross-linked residues | K202 to K134
coproporphyrin I | SLCO1B1 (Homo sapiens, UniProt Q9Y6L6) | transporter uptake, inhibitor | – | with: GCDCA-G | – | IC50 | 565 ± 138 nM
insulin | – | LC-MS/MS | prepared human sample | two freeze-thaw cycles, low pool | – | concentration | 0.36 ng/mL
Polymyxin B | – | untargeted LC-MS metabolomics, item: orthophosphate | Sprague-Dawley rat, right cerebral cortex | intracerebroventricular, 0.75 mg/kg, 1 h | reference: NaCl control | log2 fold change | -5.9
coproporphyrin I | – | UHPLC-MS/MS | human, serum | oral, 20 mg ezetimibe, 1.33 h, geometric mean ezetimibe phase | – | serum concentration | 2.71 nM
11-deoxycorticosterone | human CYP11B2 | stopped-flow kinetic modelling | – | 3-state conformational selection model, with: equimolar adrenodoxin | – | Kd | 4690 nM
methyl-β-cyclodextrin | KCNH2 (Homo sapiens, UniProt Q12809) | steady-state activation, whole-cell patch clamp | – | – | – | maximum tail current density | 55 ± 14.3 pA/pF
regorafenib N-β-glucuronide | – | – | mouse plasma | 75 ng/mL, 8 h, room temperature | – | short-term stability accuracy | 107%
colistin | Pseudomonas aeruginosa | broth microdilution | clinical isolate RKI-No_579/15 | – | – | MIC | 1 µg/mL
FNA / CGLSGLGVA-NH2 ([18F]FNA-labelled, C-amide) | – | ex vivo gamma counting | peptide, glioblastoma mouse model, blood | 60 min post injection, with: 500-fold excess CooP blocking | – | tissue uptake | 0.74 %ID/g
caspofungin | – | – | adult ICU patients, mITT, serum | dose not given, day 30 | – | alkaline phosphatase | 202 U/L
Pexiganan | Serine protease 1 (PRSS1, Bos taurus, UniProt P00760) | LC-SLIPS | – | 0.1 mg/mL, 37 °C, bovine trypsin, with: 25 12.5 ng/mL trypsin | – | incubation time to control sliding time | 2 to 4 h
ALB (Homo sapiens, UniProt P02768) | DOCK2 (Homo sapiens, UniProt Q92608) | cross-linking MS | – | with: DSSO | – | cross-linked residues | K236 to K314
Teicoplanin | – | – | QC solution | 13 months, -40 °C, high QC level | – | recovery | 95.3%
CTOP | – | RP-HPLC | HALO Peptide ES-C18 column | 25 µM, acetic acid/acetonitrile, 10 min gradient | – | retention time | 5.17 min
Ivermectin | Vero | Alamar Blue | – | 96 h | – | TC50 | 1600 nM
